Measurements of several laboratories.
Parts stem from different laboratories: compare values within a part only.

Sample 1
Target: Eukaryotic initiation factor 4A-I (EIF4A1, Homo sapiens, UniProt P60842, residues 1-406, full length assumed)
Chain of UniProt P60842 (whole entry, looked up): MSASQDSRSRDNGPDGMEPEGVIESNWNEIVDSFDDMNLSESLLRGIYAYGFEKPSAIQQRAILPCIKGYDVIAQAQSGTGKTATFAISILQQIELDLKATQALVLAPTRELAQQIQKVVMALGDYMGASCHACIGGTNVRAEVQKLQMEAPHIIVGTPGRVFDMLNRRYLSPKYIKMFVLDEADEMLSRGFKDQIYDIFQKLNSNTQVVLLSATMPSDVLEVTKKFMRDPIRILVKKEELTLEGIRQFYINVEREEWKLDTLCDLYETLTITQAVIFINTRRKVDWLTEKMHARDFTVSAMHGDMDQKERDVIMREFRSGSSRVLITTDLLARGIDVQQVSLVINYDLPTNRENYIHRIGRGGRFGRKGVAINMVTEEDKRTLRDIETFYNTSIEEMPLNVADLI
Technique: RNA Bind-n-Seq
Form: RNA
Sample: in vitro
Concentration: 90 pmol
Setting: 4-mer, random 30-nt RNA, single round
With: 3 µM DMDA-PatA, 2 mM ADP, 2 mM phosphate
Baseline: input library
Direction: higher = stronger binding
Strand | 4-mer enrichment
CCAC | 0.646 fold
CCUC | 0.584 fold
GUGU | 2.09 fold
CCAA | 0.695 fold
CUUA | 0.654 fold
UGGA | 1.11 fold
UAGC | 0.825 fold
CUUU | 0.698 fold
UGGC | 1.08 fold
UAAG | 1.17 fold
UCUG | 0.732 fold
UCCC | 0.683 fold
AACU | 0.657 fold

Sample 2
Target: Histone acetyltransferase KAT6A, winged helix 1, GST fusion (KAT6A, Homo sapiens, UniProt Q92794, residues 1-85)
Technique: protein binding microarray
Form: double-stranded DNA, one strand shown
Sample: in vitro
Concentration: not given
Setting: 8-mer, flanks averaged, mean of 2 arrays, mostly near background
Baseline: not given
Direction: higher = stronger binding
Construct (chain): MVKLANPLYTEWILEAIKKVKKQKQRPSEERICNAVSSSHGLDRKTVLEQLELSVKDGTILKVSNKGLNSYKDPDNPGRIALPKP
Strand | E-score
CTGGGATC | -0.148
TCGTTTAA | -0.251
ACTGGGGA | -0.2
CACTGGAG | -0.168
CAATTCGA | -0.2
AGAGGGCA | -0.226
CGATTCTA | -0.0416
CTACAGGC | 0.000595
AGGTCTCC | 0.0606
CTGGAGCC | 0.118
CCGAAAAG | -0.0838
CTTAGTCA | 0.00127
AACAACCA | -0.147
AGCCGCAA | 0.172
CGATGAAG | -0.0475
ATCAAACC | -0.134
AGGGTCAC | -0.0965

Sample 3
Target: RNA binding protein fox-1 homolog 2, RRM domain, GST-SBP tag (RBFOX2, Homo sapiens, UniProt O43251-10, residues 100-194)
Technique: RNA Bind-n-Seq
Form: RNA
Sample: in vitro
Concentration: 365 nM
Setting: natural RNA segment, single round, ends assumed
Baseline: no-protein control
Direction: higher = stronger binding
Residues (chain): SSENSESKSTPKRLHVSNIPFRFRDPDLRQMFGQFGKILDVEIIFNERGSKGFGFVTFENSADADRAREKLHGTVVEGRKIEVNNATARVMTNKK
Strand | RBNS enrichment (R)
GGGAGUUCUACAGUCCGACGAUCAGGAGCAGCAUUAUCCCCAAAGAUAUUACAGGGUAGACACGUUUUAACUGAAAUCAAUCAAGAUAACUUUAUUCAAAGAGCAGCCCGCUUUGUGUGACUAAAAUGAAACAUGGAAUUCUCGGGUGCCAA | 0.737
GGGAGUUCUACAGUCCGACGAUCGAGCCUCACCUCUGAGUUCAUUCAUGACAUCGACCGAGAACUGAAGACUAUCCAAGCUGUGCUGACUGUCCCCAAGCUGAAGCUGAGCUUCGAAGGCGAACUUACCAAGUUGGAAUUCUCGGGUGCCAA | 0.308
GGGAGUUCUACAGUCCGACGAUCUGAUGAGGCCCCAGCUGGGGCCUGUUGUCUGGGACCCUCCCUCUCCUGAGAGGGGAGGCCUGGUGGCUUAGCCUGGGCAGGUCGUGUCUCCUCCUGACCCCAGUGGCUGCUGGAAUUCUCGGGUGCCAA | 0.291
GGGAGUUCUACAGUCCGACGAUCUCUUGCCAGAGCUGAGCUGAGCAGCUCGUGUUCCAGCGCCAGUGGGGCCGAGGUUUGCUGUGGUUCUUGUUUCAGACUGGCGUGCUGAGUGCUGGAAGCUGUUUGCACCUUGGAAUUCUCGGGUGCCAA | 0.602
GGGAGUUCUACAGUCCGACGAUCUGCUUAUUAUGGUAAAAUAAAAUUGGAAAAAAUUAAAACUGACCUAUAAGAGUGUUAAGGACCUAAUAGAGUGACAUAUAUAAAUUAAGCAUAAAAUAUGUAACCAGGAAUGGAAUUCUCGGGUGCCAA | 0.582
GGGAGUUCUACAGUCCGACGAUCAUGCUUAGAAUAUCAGUAUUUUGGAUGUUGCUGCAUUUUACAAUUUAUUUGGAGUCUUCCUUUAUUUUCCCCCAGAUAUAUGAAAAUAUGCAAUACCUGCUUAUAUCAUGUGGAAUUCUCGGGUGCCAA | 0.652
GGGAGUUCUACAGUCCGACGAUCGUAGAUCUCCAUGCUUUGCUCUCAAGGCUUGGAGAGGUAUGUGCCCCUCCUGGGUGCUCACCGCCUGCUACACAGGCAGGAAUGCGGUUGGGAGGCAGGUCGGGCUGCCAUGGAAUUCUCGGGUGCCAA | 0.268
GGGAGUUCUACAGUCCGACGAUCACCAUUUGAAGUCAGCUAAUUUGACUUUUAUGGCUCUGUCUUUUUCUUUCAUGAAGAACCCUGUUUAAAACUGGGGUCAUUAACUGUUCUAUUCUAACAAAGUAGUCUUGUGGAAUUCUCGGGUGCCAA | 0.371
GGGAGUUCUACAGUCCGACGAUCGUUUGGGAUAUUAAAACACAAAGUCCUUAACAUGCCAGGCUCAAGGUCUUAUAAGAGUUCUAGAUUUUUAAGAGAAUUAGACAAAUUUGUGUGUGUUAGAAGCCCAUUCAUGGAAUUCUCGGGUGCCAA | 0.798
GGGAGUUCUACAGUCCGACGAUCCACGACGGAAGUGAAGAAGAUACUGCAUUCAAGUGUUUUUUGUAAAAGUUUGUCAUGGUGAAUAACUUGAAAUUUUUAUUAGUUAUAAGAAUUUUAGUCUGUUUUAGAGGUGGAAUUCUCGGGUGCCAA | 0.428
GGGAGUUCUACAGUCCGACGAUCACAACCGGAAUGAUCUGGCCCCCAGCCUCCAGACCCUCUAAUGCCCUCAGUGGCCACAUCAUGCCCACUCCCACUCCAUCCUGUCCCCAAGGACUCACAUACAGUGCCUGUGGAAUUCUCGGGUGCCAA | 0.517
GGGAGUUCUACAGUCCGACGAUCUGGUUACACCAUCAUCUACCCUCUAGCUAGGGAUGAGGUGGAGGUAAAAUGCUCCCUGUGAGUUUGCAAGCUCUGAAAACAACACCGCUGUGUGCUCAUUCUUAGAGUGAUGGAAUUCUCGGGUGCCAA | 0.229

Sample 4
Target: Interferon regulatory factor 7, full length, phosphomimetic (IRF7, Homo sapiens, UniProt Q92985, residues 1-503, S471D/S472D/S475D/S476D/S477D/S483D/S484D/S487D)
Chain of UniProt Q92985 (whole entry, unmodified, looked up): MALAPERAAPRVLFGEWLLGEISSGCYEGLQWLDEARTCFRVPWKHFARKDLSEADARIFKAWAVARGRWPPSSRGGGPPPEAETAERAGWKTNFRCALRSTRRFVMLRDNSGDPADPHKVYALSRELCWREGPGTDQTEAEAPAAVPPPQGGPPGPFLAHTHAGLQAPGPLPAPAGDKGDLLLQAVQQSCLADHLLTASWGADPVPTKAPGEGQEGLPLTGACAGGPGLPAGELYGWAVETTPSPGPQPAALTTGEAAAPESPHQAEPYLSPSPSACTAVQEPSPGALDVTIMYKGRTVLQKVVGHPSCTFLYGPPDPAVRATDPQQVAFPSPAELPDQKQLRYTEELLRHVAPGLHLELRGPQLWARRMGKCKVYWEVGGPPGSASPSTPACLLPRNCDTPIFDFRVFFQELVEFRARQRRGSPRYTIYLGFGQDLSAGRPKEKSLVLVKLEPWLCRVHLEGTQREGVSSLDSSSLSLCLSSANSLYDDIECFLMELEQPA
Technique: protein-binding microarray
Form: double-stranded DNA, one strand shown
Sample: in vitro
Concentration: 2200 nM top
Setting: 60-bp whole probe
With: salmon DNA 0.4 mg/ml
Baseline: random background probes
Direction: higher = stronger binding
Constant ends, left off below: GCCTAGCAC … GTCTTGATTCGCTTGACGCTGCTG
Strand | fitted relative affinity [z-score]
TTAGATCCCAGTCTCGATTAGTGCTAG | 1.09
TTAGAATTCGGGTTTCGATTAGTGCTA | 3.21
GACGATTTCAGACTGGAGTCGTGCTAG | 0.485
TCATTTGTCACTCTCAGACTGTGCTAG | 1.65
TTAGGTTTCCTTATCCTTTGGTGCTAG | 2
GGATGTGTCTTAAATAGGGGAGTGCTA | -0.316
GATGGTATCGGACTGGGGACGTGCTAG | -0.169
GCTAGTGTGCCATATTTATCTGTGCTA | -0.183
GACGGACTGCGTTTCGGGACGTGCTAG | 0.86
GACGATTTCTGTTCCGAGACGTGCTAG | 2.87
CTGGTGCTCATCTGTCATGTTGTGCTA | 0.764
TTAAGTCTCCTACTGCTTTAGTGCTAG | 0.744
TTAGGACTGCGGACTGGGTTAGTGCTA | -0.898
TTAGCTTTCAGTTTCGATTAGTGCTAG | 9.56
TTAGGTATCCTTTTCCCTTAGTGCTAG | 1.83
TTAGAACTGGGGTCTCGATTAGTGCTA | 0.0176
TTAGGTATCGGTTTAGGTTAGTGCTAG | 2.31
TCAAGTCCCTATCTCCTACTGTGCTAG | 1.48
TTCGATTTCAGTTCCGATTAGTGCTAG | 3.38
GACTGTTTCGGGTTTCGGGACGTGCTA | 7.59
TTACGTATCGACTATCGGTTAGTGCTA | 1.51

Sample 5
Target: Centromere-binding protein 1, full length, His-tagged (CBF1, Saccharomyces cerevisiae, UniProt P17106, residues 1-351)
Chain of UniProt P17106 (whole entry, looked up): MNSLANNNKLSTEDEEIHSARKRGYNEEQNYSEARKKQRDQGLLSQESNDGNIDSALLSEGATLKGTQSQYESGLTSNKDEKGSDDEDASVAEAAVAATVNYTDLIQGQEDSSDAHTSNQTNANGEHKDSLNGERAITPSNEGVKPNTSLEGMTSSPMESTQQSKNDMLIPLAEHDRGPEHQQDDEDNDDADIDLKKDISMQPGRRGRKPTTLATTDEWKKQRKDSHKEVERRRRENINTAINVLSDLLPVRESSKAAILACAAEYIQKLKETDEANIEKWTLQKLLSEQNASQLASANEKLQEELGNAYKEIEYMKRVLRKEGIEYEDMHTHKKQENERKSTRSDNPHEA
Technique: competition protein-binding microarray
Form: double-stranded DNA, one strand shown
Sample: in vitro
Concentration: 2 µM
Setting: whole 60-bp probe, lowest competitor level
With: Pho4 competitor, 0.05 µM
Direction: higher = stronger binding
Strand | fluorescence intensity
CTCTTGGTTTACTGTCACATGGAGAACCTTTACTGGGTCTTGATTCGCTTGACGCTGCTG | 473 a.u.
TGCAAGGGTTATGGGCATGCGCATCTATGTGGCGTTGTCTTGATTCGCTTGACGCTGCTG | 86.7 a.u.
CTTCTGTAAATTTGACGGGTGGGTGGACGCGCCCCGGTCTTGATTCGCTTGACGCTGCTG | 73.9 a.u.
AAAGCGGTAATTTGCTTAGTGGGTGCAGATATCTATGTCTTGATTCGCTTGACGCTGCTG | 71.5 a.u.
TGAGGACATAATACCCACGTGAGTATGACTTTAAAAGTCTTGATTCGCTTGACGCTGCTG | 1700 a.u.
GGTATGGCGCCGGATTGGGTTTTTTCATCAAGAATTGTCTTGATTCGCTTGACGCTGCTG | 79.2 a.u.
GGCTTCTTGAGTGTAAACGTGAGCCCTGTAATCTCAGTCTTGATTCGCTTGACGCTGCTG | 117 a.u.
TTCGGGACATCTTGTCATGCTCCTCGCAATTCACTCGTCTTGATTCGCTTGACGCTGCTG | 90.1 a.u.
TGAACCCCAACCTCATGTGTGACGGCTCTTCTCCCGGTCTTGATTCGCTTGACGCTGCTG | 67.9 a.u.
CATACCCAACCTTGTGGCGTGGGTGAAGATATTTGTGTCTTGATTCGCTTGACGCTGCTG | 59.5 a.u.
GCTGCAGGTTCTAACCATGTGATGACAATGGATTTGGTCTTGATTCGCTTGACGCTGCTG | 602 a.u.
CCGATGGGTCCCAGACACGTGGTGAAACGAGGTGCAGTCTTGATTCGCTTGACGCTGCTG | 948 a.u.
GAGATACAACACCATCACGTTTAAAAGCCTTGTTGGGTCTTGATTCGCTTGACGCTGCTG | 218 a.u.
ACATCGACGTTATCGCACGTGTGGATGTGTAAGTGGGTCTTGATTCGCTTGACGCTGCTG | 1010 a.u.
TCAAACAGCACAGTCTACATGACGCCTGGTGATTTGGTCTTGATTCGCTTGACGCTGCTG | 63.3 a.u.
CACCGATTGCGTAATCTCCTGTACACGGTTCAAGAAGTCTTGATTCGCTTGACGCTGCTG | 83.4 a.u.
TGGAGCCCGCAGCGTCACATGGCGTCTGGGGGCTTGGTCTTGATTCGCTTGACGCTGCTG | 341 a.u.
CATACCCAACCTTGCGAGGTGGGTGAAGATATTTGTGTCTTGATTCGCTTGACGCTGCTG | 50 a.u.
TAACAGCCAAGTACCCACGGGTTTCTCTAGCCTCATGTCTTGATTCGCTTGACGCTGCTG | 73.7 a.u.
TTCATAGTAAAGTTCCTCGTGAAACTGGTTTCTCAAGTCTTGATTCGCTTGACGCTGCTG | 96.8 a.u.
CTTTCCCGATCTTGCACAGTGGGTGTAGCACATTTGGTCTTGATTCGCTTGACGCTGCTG | 59.6 a.u.
CGTATACATAGGCATTGCGTGTTGAAAAATTGTCGGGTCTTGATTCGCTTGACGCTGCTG | 85.4 a.u.
TCTCTCGCGTTGCTTCTTGTGACGGCAGTTGTATATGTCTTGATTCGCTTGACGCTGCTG | 96.5 a.u.
ATGGACAATAACGACCACGTGGGTAACGCAATGACTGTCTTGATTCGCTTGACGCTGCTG | 2070 a.u.

Repeated from above (sample 2):
Strand | E-score
AGGTCTCC | 0.0606
CTTAGTCA | 0.00127
CTACAGGC | 0.000595
AGGGTCAC | -0.0965
CGATTCTA | -0.0416
AGCCGCAA | 0.172
